Results of several laboratories.
Parts stem from different laboratories: compare values within a part only.
Chain of UniProt P54764 (whole entry, looked up): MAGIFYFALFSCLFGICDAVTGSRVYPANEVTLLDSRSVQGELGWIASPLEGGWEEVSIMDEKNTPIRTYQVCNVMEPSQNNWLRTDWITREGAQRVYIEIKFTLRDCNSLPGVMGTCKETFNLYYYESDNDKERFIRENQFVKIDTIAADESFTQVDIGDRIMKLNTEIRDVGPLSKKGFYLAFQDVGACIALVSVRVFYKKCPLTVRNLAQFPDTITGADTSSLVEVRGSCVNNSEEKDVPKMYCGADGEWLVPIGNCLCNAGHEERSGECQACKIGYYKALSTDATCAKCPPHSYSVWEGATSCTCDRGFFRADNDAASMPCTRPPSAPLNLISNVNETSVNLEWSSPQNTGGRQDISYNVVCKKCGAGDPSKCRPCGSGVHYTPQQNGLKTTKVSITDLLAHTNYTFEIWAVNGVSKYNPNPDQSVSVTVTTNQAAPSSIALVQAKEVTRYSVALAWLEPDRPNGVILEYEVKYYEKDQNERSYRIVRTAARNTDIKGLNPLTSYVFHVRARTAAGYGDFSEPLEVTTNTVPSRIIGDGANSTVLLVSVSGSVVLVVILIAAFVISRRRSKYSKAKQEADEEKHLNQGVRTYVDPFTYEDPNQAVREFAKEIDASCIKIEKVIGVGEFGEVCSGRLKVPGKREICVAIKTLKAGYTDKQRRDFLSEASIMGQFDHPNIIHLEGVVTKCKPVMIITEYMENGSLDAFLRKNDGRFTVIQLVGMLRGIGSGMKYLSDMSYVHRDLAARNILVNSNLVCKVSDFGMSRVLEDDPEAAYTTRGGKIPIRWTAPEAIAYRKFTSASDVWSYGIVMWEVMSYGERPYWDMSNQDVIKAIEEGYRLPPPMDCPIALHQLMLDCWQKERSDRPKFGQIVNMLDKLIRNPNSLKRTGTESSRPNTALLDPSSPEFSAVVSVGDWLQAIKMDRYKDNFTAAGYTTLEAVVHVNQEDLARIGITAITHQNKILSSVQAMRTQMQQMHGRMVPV
Chain of UniProt Q13546 (whole entry, looked up): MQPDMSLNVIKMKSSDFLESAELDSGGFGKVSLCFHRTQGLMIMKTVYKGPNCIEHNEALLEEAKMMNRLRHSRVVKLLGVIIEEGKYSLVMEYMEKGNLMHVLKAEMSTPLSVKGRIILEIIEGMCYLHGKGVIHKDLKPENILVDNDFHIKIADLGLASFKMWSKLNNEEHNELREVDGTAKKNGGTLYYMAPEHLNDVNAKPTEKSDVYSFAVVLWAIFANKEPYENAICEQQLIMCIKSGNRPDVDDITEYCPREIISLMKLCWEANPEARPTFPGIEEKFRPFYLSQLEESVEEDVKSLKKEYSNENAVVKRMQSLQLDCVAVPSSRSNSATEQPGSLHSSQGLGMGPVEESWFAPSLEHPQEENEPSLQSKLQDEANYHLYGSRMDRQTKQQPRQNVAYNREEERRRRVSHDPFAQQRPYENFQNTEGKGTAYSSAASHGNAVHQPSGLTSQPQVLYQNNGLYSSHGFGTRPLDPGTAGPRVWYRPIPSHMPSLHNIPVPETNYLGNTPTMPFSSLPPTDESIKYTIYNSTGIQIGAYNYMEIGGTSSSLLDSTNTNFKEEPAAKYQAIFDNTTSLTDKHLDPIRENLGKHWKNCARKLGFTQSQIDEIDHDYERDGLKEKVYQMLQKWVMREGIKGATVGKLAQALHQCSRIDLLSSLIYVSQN
Chain of UniProt P27448 (whole entry, looked up): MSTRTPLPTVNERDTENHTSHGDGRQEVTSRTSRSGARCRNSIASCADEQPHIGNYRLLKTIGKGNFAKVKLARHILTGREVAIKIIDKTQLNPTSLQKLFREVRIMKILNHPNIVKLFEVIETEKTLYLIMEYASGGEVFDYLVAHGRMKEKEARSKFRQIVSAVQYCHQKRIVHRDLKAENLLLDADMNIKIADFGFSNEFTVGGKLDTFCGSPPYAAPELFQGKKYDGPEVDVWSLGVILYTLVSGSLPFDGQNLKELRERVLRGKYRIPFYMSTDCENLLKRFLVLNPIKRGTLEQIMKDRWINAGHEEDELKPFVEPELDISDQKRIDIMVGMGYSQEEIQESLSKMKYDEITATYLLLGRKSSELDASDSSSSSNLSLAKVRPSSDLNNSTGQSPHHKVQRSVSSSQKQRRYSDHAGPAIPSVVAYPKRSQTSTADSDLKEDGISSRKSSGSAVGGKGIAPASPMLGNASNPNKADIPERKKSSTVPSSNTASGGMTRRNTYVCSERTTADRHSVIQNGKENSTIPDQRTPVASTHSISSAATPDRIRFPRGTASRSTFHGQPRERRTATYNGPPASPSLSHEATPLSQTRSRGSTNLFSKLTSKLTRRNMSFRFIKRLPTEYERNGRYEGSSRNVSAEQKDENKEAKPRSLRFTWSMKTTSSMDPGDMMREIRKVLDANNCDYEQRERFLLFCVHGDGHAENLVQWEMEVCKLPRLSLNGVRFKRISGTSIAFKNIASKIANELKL
Chain of UniProt O60566 (whole entry, looked up): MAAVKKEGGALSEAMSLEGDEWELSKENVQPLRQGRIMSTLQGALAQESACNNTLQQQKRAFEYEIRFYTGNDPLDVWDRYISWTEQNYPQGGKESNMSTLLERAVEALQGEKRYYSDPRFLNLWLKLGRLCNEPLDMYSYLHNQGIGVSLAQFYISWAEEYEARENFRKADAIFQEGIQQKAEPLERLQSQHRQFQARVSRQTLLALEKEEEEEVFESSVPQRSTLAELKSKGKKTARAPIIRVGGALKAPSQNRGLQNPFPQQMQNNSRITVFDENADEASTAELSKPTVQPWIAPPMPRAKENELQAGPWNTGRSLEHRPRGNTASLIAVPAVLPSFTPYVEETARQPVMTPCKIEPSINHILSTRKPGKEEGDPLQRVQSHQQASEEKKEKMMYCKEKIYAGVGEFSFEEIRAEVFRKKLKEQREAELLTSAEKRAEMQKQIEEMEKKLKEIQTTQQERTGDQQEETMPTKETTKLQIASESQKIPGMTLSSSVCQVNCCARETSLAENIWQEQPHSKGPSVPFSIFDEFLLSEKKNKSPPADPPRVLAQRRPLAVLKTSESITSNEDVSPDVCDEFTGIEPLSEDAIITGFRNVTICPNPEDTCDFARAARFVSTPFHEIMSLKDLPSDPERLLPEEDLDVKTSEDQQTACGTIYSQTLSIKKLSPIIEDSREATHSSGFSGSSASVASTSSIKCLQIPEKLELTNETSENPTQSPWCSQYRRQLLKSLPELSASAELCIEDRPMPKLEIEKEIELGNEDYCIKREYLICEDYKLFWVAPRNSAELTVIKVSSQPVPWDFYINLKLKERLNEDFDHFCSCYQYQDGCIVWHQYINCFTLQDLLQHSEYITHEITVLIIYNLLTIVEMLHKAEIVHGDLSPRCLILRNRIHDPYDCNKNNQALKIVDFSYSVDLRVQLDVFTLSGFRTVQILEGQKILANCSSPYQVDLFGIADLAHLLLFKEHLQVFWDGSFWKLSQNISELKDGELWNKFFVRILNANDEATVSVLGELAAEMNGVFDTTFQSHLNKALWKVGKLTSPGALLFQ
Chain of UniProt Q13131 (whole entry, looked up): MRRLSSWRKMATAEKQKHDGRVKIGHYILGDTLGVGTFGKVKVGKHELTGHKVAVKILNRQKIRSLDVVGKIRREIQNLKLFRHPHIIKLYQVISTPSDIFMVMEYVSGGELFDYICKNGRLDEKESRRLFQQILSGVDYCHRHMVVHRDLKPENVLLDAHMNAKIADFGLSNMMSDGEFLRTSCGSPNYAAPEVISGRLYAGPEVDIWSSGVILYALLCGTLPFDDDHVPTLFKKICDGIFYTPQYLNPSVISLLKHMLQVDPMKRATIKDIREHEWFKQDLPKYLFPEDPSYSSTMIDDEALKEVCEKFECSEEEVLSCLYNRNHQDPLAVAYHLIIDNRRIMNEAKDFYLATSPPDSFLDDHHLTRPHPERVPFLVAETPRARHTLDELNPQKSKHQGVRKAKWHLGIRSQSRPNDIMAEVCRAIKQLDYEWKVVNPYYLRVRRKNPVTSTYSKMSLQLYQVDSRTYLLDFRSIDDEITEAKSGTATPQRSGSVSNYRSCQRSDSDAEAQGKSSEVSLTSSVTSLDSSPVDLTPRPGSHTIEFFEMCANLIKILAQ

Block 1
Compound: CCCCC(=O)Nc1ccc(-c2ccc3ncn(CCC)c(=O)c3c2)cn1
Read-out: binding
Method: competition with immobilised ligand
Concentration: 0.5 µM
| target | remaining binding [%] |
| --- | --- |
| Ephrin type-A receptor 4 (EPHA4, Homo sapiens, UniProt P54764) | 100 |
| Receptor-type tyrosine-protein kinase FLT3 (FLT3, Homo sapiens, UniProt P36888, R834Q) | 100 |
| Phosphatidylinositol 4,5-bisphosphate 3-kinase catalytic subunit alpha isoform (PIK3CA, Homo sapiens, UniProt P42336, C420R) | 98 |
| Receptor-interacting serine/threonine-protein kinase 1 (RIPK1, Homo sapiens, UniProt Q13546) | 100 |

Mixed results
| SMILES | target | read-out | action | method | concentration | measurement | value |
| --- | --- | --- | --- | --- | --- | --- | --- |
| CNc1ncc2c(/C=C/C(=O)N3CCC(OC)CC3)nn(Cc3cccc(C(F)(F)F)c3)c2n1 | Mitotic checkpoint serine/threonine-protein kinase BUB1 beta (BUB1B, Homo sapiens, UniProt O60566) | enzyme activity | inhibitor | radiometric | 1 µM | remaining activity | 96% |
| C=CC(=O)N1CCC(COCC(=O)N2CCN(c3nc(-c4cnc(N)nc4C(F)F)nc(N4CCOC[C@@H]4C)n3)CC2)CC1 | 5'-AMP-activated protein kinase catalytic subunit alpha-1 (PRKAA1, Homo sapiens, UniProt Q13131) | binding |  | competition with immobilised ligand | 1 µM | remaining binding | 100% |
| Cc1cc([C@@H](C)Nc2ccccc2C(=O)O)c2nc(N3CCC(F)(F)CC3)c(C#N)c(=O)n2c1 | MAP/microtubule affinity-regulating kinase 3 (MARK3, Homo sapiens, UniProt P27448) | binding |  | competition with immobilised ligand | 10 µM | remaining binding | 100% |
| COc1cc(-c2cncc3c2CN(C)Cc2cc(N4CCNCC4)ccc2-3)cc(OC)c1OC | Tyrosine-protein kinase JAK2 (JAK2, Homo sapiens, UniProt O60674) | enzyme activity | inhibitor |  | 1 µM | remaining activity | 106% |

Excerpt of the above (block 1):
| target | remaining binding [%] |
| --- | --- |
| Receptor-type tyrosine-protein kinase FLT3 (FLT3, Homo sapiens, UniProt P36888, R834Q) | 100 |
